Experimental data of several laboratories.
Protocols differ between the studies behind these lines. Values joined by “and” are separate records of one study, mostly repeats; a detail may differ.
Target: Homeodomain-interacting protein kinase 2 (HIPK2, Homo sapiens, UniProt Q9H2X6)

assay | conditions | scale | endpoint | value | Compound
enzyme activity, inhibitor | 10 µM | – | remaining activity | 3% | Nc1nc(Nc2ccccc2)sc1C(=O)c1ccccc1
enzyme activity, inhibitor | 0.25 µM | – | remaining activity | 62% | c1ccc2c(Nc3cc(C4CCC4)[nH]n3)nc(Nc3ccc4nc[nH]c4c3)nc2c1
enzyme activity, Dundee kinase panel | 10 µM | – | remaining activity | 114% | Cc1cccc(-c2ccc3nc(NC(=O)C4CCCO4)nn3c2)c1 (stereo not shown)
kinase activity, inhibitor | 1 µM | reference: untreated control | remaining activity | 111% | COc1c(OCCCN2CCOCC2)ccc2c1N=C(NC(=O)c1cnc(N)nc1)N1CCN=C21
kinase activity | 0.1 µM, together with: ATP at Km | – | inhibition | 11.3% | CCn1cc(C(=O)O)c(=O)c2c(N)c(F)c(NC3CCCCC3)cc21
enzyme activity, inhibitor | 0.1 µM | – | inhibition | 1% | CN1CCN(Cc2ccc(-c3ccc(CO[C@H]4CCC[C@@H]4NC(=O)c4cc(-c5cnn(C)c5)cnc4N)cc3)cc2)CC1
kinase activity, KinaseProfiler | 0.03 µM, species human | reference: control | remaining activity | 106% | COc1ccc(NC(=O)Nc2ccc3c(c2)C(=O)N(C(C)CO)CC(C)C(CN(C)Cc2ccc4c(c2)OCO4)O3)cc1 (stereo not shown)
enzyme activity, Dundee kinase panel | 10 µM | – | remaining activity | 96% | Cc1cccc(-c2ccc3nc(NC(=O)C4CCCCC4)nn3c2)c1
kinase activity | 0.1 µM | – | inhibition | 64% and 67% | C=CC(=O)Nc1cccc(-c2cnc3[nH]cc(C(=O)NC(C)(C)C)c3n2)c1
binding, competition with immobilised ligand | 3 µM | – | remaining binding | 69% | COc1c(Cl)cccc1Nc1c(-c2ccncc2C#C[C@@]2(C)CCCN2C(=O)/C=C/CN(C)C)[nH]c2c1C(=O)NCC2
KinomeScan | 0.1 µM | reference: untreated | remaining binding | 78% | CNC1C[S+]2CC[S+]3CC[S+](C1)[Ru-4]321([N]=C=S)[n]2c3ccc(OC)cc3c3c4c(c5cc(F)c[n+]1c5c32)C(=O)NC4=O (stereo not shown)
enzyme activity, inhibitor | 10 µM | – | inhibition | -3% | Cc1cccc(O[C@H]2CCC[C@@H](C(C)CNCc3ccncc3)C2)c1 (relative stereo)
cell-free assay, competition with immobilised ligand | 1 µM | – | remaining binding | 76% | C=CC(=O)N1CCCC(n2c(=O)c3ncccc3n(Cc3ccc(Oc4ccccc4)cc3)c2=O)C1 (stereo not shown)
enzyme activity, inhibitor | 1 µM | – | inhibition | 13% | CN1CC[C@@H](COc2cnc(C#N)cc2-c2ccn3nc(NC(=O)C4CC4)cc3c2)C1
binding, competition with immobilised ligand | 1 µM | – | remaining binding | 54% | Nc1ncc2c(n1)-c1c([nH]c3ccc(C4=CCOCC4)cc13)CCC2
enzyme activity, inhibitor | 10 µM | – | inhibition | -2% | NC(=O)C[C@H]1CCc2sc3ncnc(O[C@H]4CC[C@H](N5CCOCC5)CC4)c3c21

A few entries again:
assay | conditions | scale | endpoint | value | Compound
kinase activity | 0.1 µM | – | inhibition | 64% and 67% | C=CC(=O)Nc1cccc(-c2cnc3[nH]cc(C(=O)NC(C)(C)C)c3n2)c1
enzyme activity, Dundee kinase panel | 10 µM | – | remaining activity | 96% | Cc1cccc(-c2ccc3nc(NC(=O)C4CCCCC4)nn3c2)c1
